Assay results gathered from unrelated publications.
Every numbered part comes from another study and shows a few of its results, in no order.
Sequence of UniProt Q13554 (whole entry, looked up): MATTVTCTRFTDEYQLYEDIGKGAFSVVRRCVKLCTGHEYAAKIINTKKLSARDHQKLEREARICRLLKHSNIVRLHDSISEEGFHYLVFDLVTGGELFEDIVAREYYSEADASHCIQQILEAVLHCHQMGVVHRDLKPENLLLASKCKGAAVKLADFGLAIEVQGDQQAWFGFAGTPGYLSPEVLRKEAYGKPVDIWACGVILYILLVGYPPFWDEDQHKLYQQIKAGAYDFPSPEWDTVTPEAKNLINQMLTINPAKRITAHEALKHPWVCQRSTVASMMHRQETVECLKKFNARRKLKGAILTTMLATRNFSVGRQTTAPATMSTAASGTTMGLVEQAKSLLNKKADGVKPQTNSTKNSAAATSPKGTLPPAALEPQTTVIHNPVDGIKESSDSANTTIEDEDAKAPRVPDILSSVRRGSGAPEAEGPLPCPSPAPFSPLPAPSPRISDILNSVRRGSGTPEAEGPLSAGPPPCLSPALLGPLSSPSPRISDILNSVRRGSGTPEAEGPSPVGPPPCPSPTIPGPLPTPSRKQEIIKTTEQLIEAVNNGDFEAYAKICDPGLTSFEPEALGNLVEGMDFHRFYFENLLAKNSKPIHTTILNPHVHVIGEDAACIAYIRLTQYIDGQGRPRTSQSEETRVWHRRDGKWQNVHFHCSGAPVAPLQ
Sequence of UniProt P54760 (whole entry, looked up): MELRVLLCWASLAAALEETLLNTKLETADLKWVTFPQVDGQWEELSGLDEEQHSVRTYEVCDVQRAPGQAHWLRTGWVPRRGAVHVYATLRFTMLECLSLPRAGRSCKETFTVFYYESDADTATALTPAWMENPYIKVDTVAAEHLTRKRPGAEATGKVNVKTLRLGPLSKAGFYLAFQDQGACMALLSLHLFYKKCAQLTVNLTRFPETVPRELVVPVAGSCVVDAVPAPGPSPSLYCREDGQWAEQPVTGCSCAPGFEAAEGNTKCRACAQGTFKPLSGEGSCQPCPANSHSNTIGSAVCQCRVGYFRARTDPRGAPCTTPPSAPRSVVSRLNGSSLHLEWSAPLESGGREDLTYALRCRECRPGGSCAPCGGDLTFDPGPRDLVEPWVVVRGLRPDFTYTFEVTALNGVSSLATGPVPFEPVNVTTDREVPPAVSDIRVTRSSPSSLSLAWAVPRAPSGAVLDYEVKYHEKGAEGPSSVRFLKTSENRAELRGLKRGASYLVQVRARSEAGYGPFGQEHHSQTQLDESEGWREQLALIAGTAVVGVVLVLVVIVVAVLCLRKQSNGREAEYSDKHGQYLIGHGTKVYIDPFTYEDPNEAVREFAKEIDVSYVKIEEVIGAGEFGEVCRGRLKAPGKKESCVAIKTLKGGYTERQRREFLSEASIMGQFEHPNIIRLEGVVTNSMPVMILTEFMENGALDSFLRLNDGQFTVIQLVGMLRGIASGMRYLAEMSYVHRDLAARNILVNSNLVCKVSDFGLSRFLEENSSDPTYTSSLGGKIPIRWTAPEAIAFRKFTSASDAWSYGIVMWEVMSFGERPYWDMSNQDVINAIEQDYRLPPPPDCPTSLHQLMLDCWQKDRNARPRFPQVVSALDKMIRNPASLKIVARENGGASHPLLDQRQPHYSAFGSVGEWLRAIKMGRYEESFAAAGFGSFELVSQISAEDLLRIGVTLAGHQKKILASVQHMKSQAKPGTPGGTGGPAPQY
Sequence of UniProt Q9UM73 (whole entry, unmodified, looked up): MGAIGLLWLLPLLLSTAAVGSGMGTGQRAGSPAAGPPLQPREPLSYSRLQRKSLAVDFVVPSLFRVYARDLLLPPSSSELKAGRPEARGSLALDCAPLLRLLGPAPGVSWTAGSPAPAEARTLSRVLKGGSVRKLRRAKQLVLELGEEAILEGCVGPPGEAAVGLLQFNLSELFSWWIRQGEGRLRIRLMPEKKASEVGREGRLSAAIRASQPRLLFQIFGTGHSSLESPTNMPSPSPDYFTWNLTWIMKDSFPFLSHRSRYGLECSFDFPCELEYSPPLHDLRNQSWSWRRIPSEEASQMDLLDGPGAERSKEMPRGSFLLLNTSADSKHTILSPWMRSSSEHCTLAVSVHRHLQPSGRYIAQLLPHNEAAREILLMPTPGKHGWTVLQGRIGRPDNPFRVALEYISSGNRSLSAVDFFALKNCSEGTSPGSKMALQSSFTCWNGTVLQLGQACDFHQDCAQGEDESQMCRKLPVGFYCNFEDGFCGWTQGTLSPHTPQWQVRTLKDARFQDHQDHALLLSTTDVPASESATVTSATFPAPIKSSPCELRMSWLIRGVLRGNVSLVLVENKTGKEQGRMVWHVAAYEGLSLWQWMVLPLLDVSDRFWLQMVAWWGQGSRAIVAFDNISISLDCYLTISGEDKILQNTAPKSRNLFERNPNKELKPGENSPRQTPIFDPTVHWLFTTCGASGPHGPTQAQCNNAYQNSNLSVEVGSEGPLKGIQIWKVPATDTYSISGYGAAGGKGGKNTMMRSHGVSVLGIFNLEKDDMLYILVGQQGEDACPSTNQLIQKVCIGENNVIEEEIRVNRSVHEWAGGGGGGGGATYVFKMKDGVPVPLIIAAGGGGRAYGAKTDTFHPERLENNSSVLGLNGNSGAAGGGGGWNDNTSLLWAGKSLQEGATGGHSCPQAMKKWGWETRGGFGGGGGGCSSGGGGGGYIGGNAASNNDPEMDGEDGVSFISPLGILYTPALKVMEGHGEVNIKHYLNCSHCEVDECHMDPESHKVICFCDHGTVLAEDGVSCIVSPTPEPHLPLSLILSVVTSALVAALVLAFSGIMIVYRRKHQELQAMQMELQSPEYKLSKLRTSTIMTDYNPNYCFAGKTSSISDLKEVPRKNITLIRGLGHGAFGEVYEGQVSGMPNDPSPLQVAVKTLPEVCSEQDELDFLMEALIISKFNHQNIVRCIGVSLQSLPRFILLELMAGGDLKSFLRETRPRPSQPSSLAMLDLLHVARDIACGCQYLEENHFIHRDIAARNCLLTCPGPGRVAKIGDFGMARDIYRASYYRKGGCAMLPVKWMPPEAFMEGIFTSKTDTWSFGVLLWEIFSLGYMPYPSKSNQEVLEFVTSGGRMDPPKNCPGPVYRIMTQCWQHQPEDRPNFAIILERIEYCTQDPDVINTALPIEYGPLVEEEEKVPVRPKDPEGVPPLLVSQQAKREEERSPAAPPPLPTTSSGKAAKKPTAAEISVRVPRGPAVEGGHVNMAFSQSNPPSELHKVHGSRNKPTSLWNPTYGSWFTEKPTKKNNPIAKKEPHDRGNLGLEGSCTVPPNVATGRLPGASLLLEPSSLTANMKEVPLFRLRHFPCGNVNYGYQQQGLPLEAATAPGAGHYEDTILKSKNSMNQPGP
Sequence of UniProt P00519 (whole entry, looked up): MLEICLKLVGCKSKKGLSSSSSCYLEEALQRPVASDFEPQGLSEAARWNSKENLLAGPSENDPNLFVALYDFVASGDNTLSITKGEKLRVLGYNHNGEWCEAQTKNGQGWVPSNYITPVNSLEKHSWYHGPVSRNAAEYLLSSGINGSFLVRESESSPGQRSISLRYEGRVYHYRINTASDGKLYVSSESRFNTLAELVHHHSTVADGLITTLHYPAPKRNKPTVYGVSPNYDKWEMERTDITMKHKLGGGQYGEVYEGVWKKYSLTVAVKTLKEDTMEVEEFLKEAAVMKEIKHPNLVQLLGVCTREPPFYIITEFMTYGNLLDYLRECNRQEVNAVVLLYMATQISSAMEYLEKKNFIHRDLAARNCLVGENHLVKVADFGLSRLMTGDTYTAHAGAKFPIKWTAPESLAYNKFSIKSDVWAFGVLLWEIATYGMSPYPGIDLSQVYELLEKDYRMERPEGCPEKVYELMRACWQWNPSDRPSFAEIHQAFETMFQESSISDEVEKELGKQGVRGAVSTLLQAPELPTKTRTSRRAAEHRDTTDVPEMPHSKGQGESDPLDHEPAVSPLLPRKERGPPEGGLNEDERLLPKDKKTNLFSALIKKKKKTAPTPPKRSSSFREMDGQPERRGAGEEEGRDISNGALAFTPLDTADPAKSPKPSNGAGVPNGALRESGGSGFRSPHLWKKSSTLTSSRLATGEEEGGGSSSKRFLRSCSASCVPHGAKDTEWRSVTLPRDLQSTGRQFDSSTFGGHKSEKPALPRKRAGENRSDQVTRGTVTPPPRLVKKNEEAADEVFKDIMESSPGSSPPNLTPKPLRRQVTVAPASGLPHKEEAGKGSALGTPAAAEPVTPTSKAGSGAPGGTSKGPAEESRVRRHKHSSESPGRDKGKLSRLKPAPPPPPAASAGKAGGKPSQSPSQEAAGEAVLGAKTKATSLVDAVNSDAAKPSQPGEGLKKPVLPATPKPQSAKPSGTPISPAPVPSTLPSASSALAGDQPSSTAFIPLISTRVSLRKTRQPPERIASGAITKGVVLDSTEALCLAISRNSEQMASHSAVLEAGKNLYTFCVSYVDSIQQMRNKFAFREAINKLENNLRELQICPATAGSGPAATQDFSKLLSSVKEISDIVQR
Sequence of UniProt O75716 (whole entry, looked up): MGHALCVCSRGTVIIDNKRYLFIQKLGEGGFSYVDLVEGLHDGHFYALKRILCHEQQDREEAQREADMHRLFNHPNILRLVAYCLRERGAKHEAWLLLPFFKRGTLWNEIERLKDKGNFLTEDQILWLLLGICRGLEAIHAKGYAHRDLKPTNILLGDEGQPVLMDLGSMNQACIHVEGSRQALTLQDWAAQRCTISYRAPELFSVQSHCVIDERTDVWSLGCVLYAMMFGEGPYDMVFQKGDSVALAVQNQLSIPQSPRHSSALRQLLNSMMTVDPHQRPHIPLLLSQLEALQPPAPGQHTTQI
Sequence of UniProt Q00534 (whole entry, looked up): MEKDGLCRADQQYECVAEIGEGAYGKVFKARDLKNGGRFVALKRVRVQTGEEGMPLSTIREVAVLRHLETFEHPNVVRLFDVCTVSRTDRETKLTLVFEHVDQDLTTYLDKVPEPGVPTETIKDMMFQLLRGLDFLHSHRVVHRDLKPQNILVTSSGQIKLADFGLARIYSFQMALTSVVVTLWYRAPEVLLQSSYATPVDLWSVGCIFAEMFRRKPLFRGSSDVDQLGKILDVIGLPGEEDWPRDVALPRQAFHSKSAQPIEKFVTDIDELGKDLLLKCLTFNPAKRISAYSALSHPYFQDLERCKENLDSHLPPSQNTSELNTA

Block 1
Structure (SMILES): C[C@H]1CC[C@H](n2c3cnccc3c3cnc(Nc4ccc5c(n4)CCN(C(=O)CO)C5)nc32)CC1
Tested at: 1 µM
target	receptor occupancy [%]
SRC (Homo sapiens, UniProt P12931)	0.768
BRAF (Homo sapiens, UniProt P15056, V600E)	-11.3
EPHB4 (Homo sapiens, UniProt P54760)	-3.37
TIE1 (Homo sapiens, UniProt P35590)	-7.36
FLT3 (Homo sapiens, UniProt P36888)	8.72
ABL1 (Homo sapiens, UniProt P00519)	-11

Block 2
Organism: Sarcocystis neurona
Observed: parasite growth
Tested at: 10 µM
Compound	inhibition [%]
CCC(=O)OCC(=O)[C@@]1(OC(=O)CC)[C@@H](C)C[C@H]2[C@@H]3CCC4=CC(=O)C=C[C@]4(C)[C@@]3(Cl)[C@@H](O)C[C@@]21C	-24.6
C[C@@H]1CN(CCCn2c3ccccc3c3ccccc32)C[C@H](C)N1	11.7
CN1CCN(CC/C=C2/c3ccccc3Sc3ccc(S(=O)(=O)N(C)C)cc32)CC1	65.9
CCN1CCC[C@H]1CNC(=O)c1c(O)c(Cl)cc(Cl)c1OC	3.8
CS(=O)(=O)c1ccc(-c2cc(Br)sc2-c2ccc(F)cc2)cc1	15
CCCCC[C@H](O)/C=C/[C@H]1[C@H](O)CC(=O)[C@@H]1CCCCCCC(=O)O	-31.7
CC(=O)[C@@]1(O)CC[C@H]2[C@@H]3C[C@H](C)C4=CC(=O)C=C[C@]4(C)[C@@]3(F)[C@@H](O)C[C@@]21C	-36.2
CO[C@@H]1[C@@H](O[C@@H]2O[C@H](C)[C@@H](O[C@H]3C[C@@](C)(O)[C@@H](OC(=O)CC(C)C)[C@H](C)O3)[C@H](N(C)C)[C@H]2O)[C@@H](CC=O)C[C@@H](C)[C@@H](O)/C=C/C=C/C[C@@H](C)OC(=O)C[C@H]1OC(C)=O	34.7
CCc1nn(CCCN2CCN(c3cccc(Cl)c3)CC2)c(=O)n1CCOc1ccccc1	67.2
CCC1(c2ccccc2)C(=O)NCNC1=O	-26.9

Block 3
SMILES: CC1=C(C#N)C(c2ccc3c(c2)c(NC(=O)c2ccccc2C)nn3C)C(C#N)=C(C)N1
Method: competition with immobilised ligand
Tested at: 1 µM
target	observed	remaining binding
FLT3 (Homo sapiens, UniProt P36888, D835V)	cell-free assay	90%
RIPK4 (Homo sapiens, UniProt P57078)	cell-free assay	78%
Macrophage colony-stimulating factor 1 receptor, autoinhibited (CSF1R, Homo sapiens, UniProt P07333)	cell-free assay	100%
CDK14 (Homo sapiens, UniProt O94921)	cell-free assay	100%
STK32A (Homo sapiens, UniProt Q8WU08)	cell-free assay	95%
ALK (Homo sapiens, UniProt Q9UM73, C1156Y)	cell-free assay	96%
FLT3 (Homo sapiens, UniProt P36888, D835Y)	cell-free assay	82%
CDKL2 (Homo sapiens, UniProt Q92772)	binding	100%
PIP4K2B (Homo sapiens, UniProt P78356)	cell-free assay	83%
MAPKAPK2 (Homo sapiens, UniProt P49137)	cell-free assay	84%
Ribosomal protein S6 kinase alpha-3, C-terminal kinase domain (RPS6KA3, Homo sapiens, UniProt P51812)	cell-free assay	94%
EIF2AK2 (Homo sapiens, UniProt P19525)	cell-free assay	100%
CLK2 (Homo sapiens, UniProt P49760)	cell-free assay	75%
EGFR (Homo sapiens, UniProt P00533, del747-752/P753S)	cell-free assay	73%
EGFR (Homo sapiens, UniProt P00533, A750P/del747-749)	cell-free assay	93%
CAMK2B (Homo sapiens, UniProt Q13554)	cell-free assay	86%
ERBB4 (Homo sapiens, UniProt Q15303)	cell-free assay	65%
FLT3 (Homo sapiens, UniProt P36888, ITD)	cell-free assay	96%
MAP2K6 (Homo sapiens, UniProt P52564)	cell-free assay	95%
Myosin-IIIa (MYO3A, Homo sapiens, UniProt Q8NEV4)	binding	86%
NEK6 (Homo sapiens, UniProt Q9HC98)	cell-free assay	100%
DAPK3 (Homo sapiens, UniProt O43293)	cell-free assay	88%
CAMK2D (Homo sapiens, UniProt Q13557)	cell-free assay	100%
WEE2 (Homo sapiens, UniProt P0C1S8)	cell-free assay	100%
IKBKE (Homo sapiens, UniProt Q14164)	cell-free assay	100%

Block 4
Compound: Cc1cc(Nc2cc(N3CCN(C)CC3)nc(Sc3ccc(NC(=O)C4CC4)cc3)n2)[nH]n1
Observed: enzyme activity
Action: inhibitor
Tested at: 0.5 µM
Relative to: control
target	remaining activity [%]
EPHA4 (Homo sapiens, UniProt P54764)	72.1
EPHB4 (Homo sapiens, UniProt P54760)	46.1
HIPK4 (Homo sapiens, UniProt Q8NE63)	95.3
WNK3 (Homo sapiens, UniProt Q9BYP7)	93.3
PHKG1 (Homo sapiens, UniProt Q16816)	69.9
MAP4K4 (Homo sapiens, UniProt O95819)	92.8
PRKACG (Homo sapiens, UniProt P22612)	112
STK16 (Homo sapiens, UniProt O75716)	52.8
CAMK2B (Homo sapiens, UniProt Q13554)	118
PDPK1 (Homo sapiens, UniProt O15530)	82.7
STK17A (Homo sapiens, UniProt Q9UEE5)	104
BLK (Homo sapiens, UniProt P51451)	81.4
RPS6KA6 (Homo sapiens, UniProt Q9UK32)	90.7
Cyclin-dependent kinase 1, with cyclin B (CDK1, Homo sapiens, UniProt P06493)	102
DYRK3 (Homo sapiens, UniProt O43781)	105
MAPKAPK3 (Homo sapiens, UniProt Q16644)	97.7
SRMS (Homo sapiens, UniProt Q9H3Y6)	95.9
Cyclin-dependent kinase 6, with cyclin D3 (CDK6, Homo sapiens, UniProt Q00534)	121
TSSK2 (Homo sapiens, UniProt Q96PF2)	83.8
Cyclin-dependent kinase 4, with cyclin D3 (CDK4, Homo sapiens, UniProt P11802)	99.2
RPS6KA5 (Homo sapiens, UniProt O75582)	85.7
AXL (Homo sapiens, UniProt P30530)	44.3

Excerpt of the above (block 4):
target	remaining activity [%]
RPS6KA5 (Homo sapiens, UniProt O75582)	85.7
WNK3 (Homo sapiens, UniProt Q9BYP7)	93.3
SRMS (Homo sapiens, UniProt Q9H3Y6)	95.9
STK17A (Homo sapiens, UniProt Q9UEE5)	104
